Published values from different studies.
“And” joins repeats or separate records; there may be more than shown. ± marks the error that the study gave.
CA12: Carbonic anhydrase 12 (CA12, Homo sapiens, UniProt O43570)
Gria1/Gria2: Glutamate receptor AMPA 1/2 (Gria1/Gria2, Rattus norvegicus, UniProt P19490+P19491)
Sodium- and chloride-dependent glycine transporter 2: Sodium- and chloride-dependent glycine transporter 2 (Homo sapiens, UniProt Q9Y345)

SMILES	target or system	assay	test system	setting	scale	endpoint	value
C=CC(=O)N1CCCC(n2c(=O)c3ncccc3n(Cc3ccc(Oc4ccccc4)cc3)c2=O)C1 (stereo not drawn)	WAS (Homo sapiens, UniProt P42768)	thermal proteome profiling	–	replicate 1	–	melting temperature	43.4 °C
COC(=O)[C@@]1(C)C=C(C(=O)Nc2cccc(C(=O)Nc3ccc(Nc4nccc(-c5cccnc5)n4)c(C)c3)c2)C(=O)CC1	Mitogen-activated protein kinase 8, docking groove (MAPK8, Homo sapiens, UniProt P45983)	peptide binding, inhibitor, fluorescence polarization	–	12.5 µM, added: JIP1 peptide probe	–	normalized fluorescence polarization	0.881
Cc1cc(=O)oc2cc(OCCCCCCSC#N)ccc12	CA12	stopped-flow CO2 hydration	–	–	reference: Ki CA II over Ki CA XII	selectivity ratio	> 1580
N=C(N)NCCS(=O)(=O)O	SLC6A6 (Homo sapiens, UniProt P31641, Y138A)	binding, microscale thermophoresis	–	122 nM, room temperature, added: 50 nM labelled protein	higher = more binding	normalised MST signal	0.0464
COC(=O)Cc1cc2c(cc1C(=O)c1ccccc1)OCO2	Gria1/Gria2	glutamate-evoked current, whole-cell patch clamp	HEK-293T	concentration not given, pH 7.4, holding potential -60 mV, added: 10 mM glutamate	–	current amplitude	406 ± 42 pA
CC[C@H](C)[C@@H]1NC(=O)[C@H](C)NC(=O)[C@H](C(C)C)NC(=O)[C@H](CC(C)C)NC(=O)C[C@@H](C(=O)N[C@@H](Cc2c[nH]c3ccccc23)C(=O)N[C@@H](CC(N)=O)C(=O)N[C@@H](C)C(=O)N2CCC[C@H]2C(=O)NCC(=O)N[C@@H](Cc2c[nH]c3ccccc23)C(=O)N[C@@H](Cc2ccccc2)C(=O)O)NC(=O)[C@H](C)NC(=O)[C@H](CCC(N)=O)NC(=O)[C@H](C(C)C)NC1=O	TLR4 (Homo sapiens, UniProt O00206)	antagonist, ELISA	–	1 µg/mL, added: LPS	reference: DMSO control, lower means stronger antagonism	OD450 in LPS binding ELISA	0.828 a.u. and 0.816 a.u. and 0.82 a.u. and 0.824 a.u.
CCOC(=O)C1CCCN(CCOCCn2cc(-c3cccs3)nn2)C1 (racemic)	Sodium- and chloride-dependent glycine transporter 2	MS binding competition	–	10 µM	–	remaining specific binding	105 ± 6.8%
O=C1c2sc(-c3ccc(N4CCC(F)C4)nc3F)nc2CCN1c1cccnc1 (stereo not drawn)	TAR DNA-binding protein 43, aggregated (TARDBP, Homo sapiens, UniProt Q13148)	radioligand binding	human, FTLD-TDP type B extract	added: radioligand 2.52 nM	–	specific binding	0.517 nM and 0.634 nM
CC(C)Oc1cc(Cl)ccc1CNc1cc(-c2ccccc2)nc2ncnn12	GPR3 (Homo sapiens, UniProt P46089, Q211A)	cAMP level, cAMP GloSensor	–	1 nM	higher = more cAMP	cAMP luminescence	32800 a.u. and 33500 a.u. and 49400 a.u. and 40700 a.u.
CCCCCCCCCCCCCCCc1cccc(OCC)c1C(=O)Nc1ccc(Cl)c(C(F)(F)F)c1	KAT5 (Homo sapiens, UniProt Q92993)	SPR	–	17 µM	higher = more binding	SPR binding response	0.405 RU
O=C(O)Cc1cc2c(cc1C(=O)c1cccc(Cl)c1)OCO2	Gria1/Gria2	glutamate-evoked current, whole-cell patch clamp	HEK-293T	concentration not given, glutamate alone after washout, added: glutamate	–	current amplitude after recovery	614 ± 34 pA
COc1cc2ncnc(Nc3ccc(Oc4ccc(C)cc4)cc3)c2cc1OC	SMUG1 (Homo sapiens, UniProt Q53HV7)	enzyme activity, activator, fluorescence	–	2 µM	reference: control	activity	90 ± 20%
C[N+]1(C)CCCC1	Chrnd/Chrna1/Chrne (Mus musculus, UniProt P02716+P04756+P20782, G173P/S470W)	binding, agonist, single-channel recording	–	binding site chain P side	–	koff	2500 s⁻¹
COC(=O)Cc1cc2c(cc1C(=O)c1ccccc1Br)OCO2	Gria1/Gria2	glutamate-evoked current, whole-cell patch clamp	HEK-293T	concentration not given, weighted tau, 1 ms pulse, added: glutamate	–	deactivation time constant	2.7 ± 0.2 ms
C#CCOC(=O)[C@@]1(C)C=C(C(=O)OC(C)(C)C)C(=O)CC1	MAPK8 (Homo sapiens, UniProt P45983)	D-peptide binding, inhibitor, FP peptide displacement	–	50 µM	lower is stronger displacement	fraction bound	0.491
O=S(=O)(Nc1ccc(CO)cc1)c1ccc(Cl)c(Cl)c1	17-beta-hydroxysteroid dehydrogenase 13 (Homo sapiens, UniProt Q7Z5P4)	substrate, NADH fluorescence	–	–	–	Km	33 µM
CC(C)[C@@H]1NC(=O)[C@H](Cc2ccccc2)NC(=O)CSC[C@@H](C(N)=O)NC(=O)[C@H](CCC(=O)O)NC(=O)[C@H](CO)NC(=O)[C@H](Cc2c[nH]c3cccc(Cl)c23)NC(=O)[C@H](C2CCCCC2)NC(=O)[C@H](C(C)C)NC(=O)[C@H](Cc2ccc(O)cc2)NC(=O)[C@H](CC(=O)O)NC(=O)[C@H](Cc2c[nH]c3ccccc23)NC(=O)[C@H](Cc2ccc(N)nc2)NC(=O)[C@H](Cc2c[nH]c3ccc(Cl)cc23)NC(=O)[C@H](CCC(=O)O)NC1=O	Interleukin-1 receptor-like 2 (IL1RL2, Homo sapiens, UniProt Q9HB29)	reporter gene (SEAP), inhibitor, HEK-Blue IL-36R reporter	HEK-Blue IL-36R cells	0.015 µM, 6 h, added: IL-36γ 0.03 ng/mL	–	remaining activity	82.3%
CN(Cc1cc(C2CC2)on1)C(=O)c1cccc(-c2ccc3c(c2)CCO3)c1	Acetyl-CoA synthetase (Cryptococcus neoformans, UniProt J9VFT1)	enzyme activity, inhibitor, coupled pyrophosphate	–	50 µM	higher is more activity	reaction rate	0.000571 a.u.
OC[C@@H]1[C@@H](O)[C@H](O)[C@@H](O)c2nccn21	bglA (Thermotoga maritima, UniProt Q08638)	ITC	–	pH 5.8, 25 °C	–	ΔH	-9.73 ± 0.932 kcal/mol
CN1CCN(CC(=O)c2ccccc2)C1=O	Uridine nucleoside ribohydrolase (Trichomonas vaginalis, UniProt A2FTT0)	enzyme activity, 19F NMR	–	200 µM, 1-fold dilution	–	inhibition after jump dilution	71.6%
CC1=CC(C)=[N+]2C1=C(CCCCN1CCC(O)CC1)c1c(C)cc(C)n1[B-]2(F)F	Sodium- and chloride-dependent glycine transporter 2	MS binding competition	–	10 µM	–	remaining specific binding	83.8 ± 1.8%
O=C(N[C@@H](Cc1ccc(OCCCCC2CCNCC2)cc1)C(=O)O)c1nc2ccccc2o1.O=C(O)C(F)(F)F	Integrin alpha-IIb/beta-3 (Homo sapiens, UniProt P05106+P08514)	inhibitor, flow cytometry	washed platelets, human	240 nM, 30 min, room temperature, added: ADP 20 µM, Alexa647-fibrinogen	higher = more binding	fibrinogen binding MFI	100000 a.u.
O[C@@H]1[C@@H](O)[C@H](F)C=C[C@H]1O	GBA1 (Homo sapiens, UniProt P04062)	continuous progress curves	–	pH 5.2, 25 °C, 0.1% BSA	–	kinact/Ki	0.59 ± 0.27 M⁻¹ s⁻¹
CC[C@H]1CN([C@@H](CC)c2ccc(C(F)(F)F)cc2)[C@H](CC)CN1c1nc(=O)n(C)c2ccc(C#N)nc12	Diacylglycerol kinase epsilon (DGKE, Homo sapiens, UniProt P52429)	inhibitor	–	concentration not given, type III DGK	–	kinase activity	inactive
COc1ccccc1/C=C/CN1CCCC(CCC(=O)NCc2ccccc2F)C1 (stereo not drawn)	Trypanosoma cruzi	reporter mRNA translation, inhibitor, item: Renilla luciferase mRNA	cell-free extract	concentration not given, test 2	reference: positive over negative control	translation activity	82.3% and 118%
CCCCCC(O)/C=C/C=O (stereo not drawn)	PSMB8 (Homo sapiens, UniProt P28062)	competitive isoTOP-ABPP	Ramos soluble proteome	100 µM, 60 min, added: iodoacetamide probe	reference: DMSO over compound-treated, higher = stronger cysteine blockade	isoTOP-ABPP competition ratio	1.1
CCOC(=O)c1ccc2c(c1)C1CC(C)(N2)c2c(C)nc3ccc(C(=O)OCC)cc3c21 (stereo not drawn)	Glideosome-associated protein 50 (GAP50, Plasmodium falciparum, UniProt Q8I2X3)	surface plasmon resonance	–	–	–	kon	20300 M⁻¹ s⁻¹
COCCOc1cc2ncnc(Nc3cccc(-c4cn(CC(=O)Nc5ccc(S(N)(=O)=O)cc5)nn4)c3)c2cc1OCCOC	CA12	–	–	–	reference: Ki hCA I over Ki hCA XII	selectivity ratio	0.47
Cc1nn(C(C)C)c(C)c1CN1CCCC(CCC(=O)NCc2ccccc2F)C1 (stereo not drawn)	Trypanosoma cruzi	reporter mRNA translation, inhibitor, item: capped polyadenylated Renilla luciferase mRNA	cell-free extract	concentration not given	reference: positive over negative control	translation activity	95.8% and 95.5% and 94.2% and 102%
CCCCCCCCCCCCC/C=C/C=O	Cytidine deaminase (CDA, Homo sapiens, UniProt P32320)	competitive isoTOP-ABPP	proteome, soluble, MDA-MB-231	100 µM, added: iodoacetamide probe	reference: DMSO over compound-treated, higher = stronger cysteine blockade	isoTOP-ABPP competition ratio	1.4

For quick reference, copied from above:
SMILES	target or system	assay	test system	setting	scale	endpoint	value
CN(Cc1cc(C2CC2)on1)C(=O)c1cccc(-c2ccc3c(c2)CCO3)c1	Acetyl-CoA synthetase (Cryptococcus neoformans, UniProt J9VFT1)	enzyme activity, inhibitor, coupled pyrophosphate	–	50 µM	higher is more activity	reaction rate	0.000571 a.u.
O=C1c2sc(-c3ccc(N4CCC(F)C4)nc3F)nc2CCN1c1cccnc1 (stereo not drawn)	TAR DNA-binding protein 43, aggregated (TARDBP, Homo sapiens, UniProt Q13148)	radioligand binding	human, FTLD-TDP type B extract	added: radioligand 2.52 nM	–	specific binding	0.517 nM and 0.634 nM
CC[C@H](C)[C@@H]1NC(=O)[C@H](C)NC(=O)[C@H](C(C)C)NC(=O)[C@H](CC(C)C)NC(=O)C[C@@H](C(=O)N[C@@H](Cc2c[nH]c3ccccc23)C(=O)N[C@@H](CC(N)=O)C(=O)N[C@@H](C)C(=O)N2CCC[C@H]2C(=O)NCC(=O)N[C@@H](Cc2c[nH]c3ccccc23)C(=O)N[C@@H](Cc2ccccc2)C(=O)O)NC(=O)[C@H](C)NC(=O)[C@H](CCC(N)=O)NC(=O)[C@H](C(C)C)NC1=O	TLR4 (Homo sapiens, UniProt O00206)	antagonist, ELISA	–	1 µg/mL, added: LPS	reference: DMSO control, lower means stronger antagonism	OD450 in LPS binding ELISA	0.828 a.u. and 0.816 a.u. and 0.82 a.u. and 0.824 a.u.
CC(C)[C@@H]1NC(=O)[C@H](Cc2ccccc2)NC(=O)CSC[C@@H](C(N)=O)NC(=O)[C@H](CCC(=O)O)NC(=O)[C@H](CO)NC(=O)[C@H](Cc2c[nH]c3cccc(Cl)c23)NC(=O)[C@H](C2CCCCC2)NC(=O)[C@H](C(C)C)NC(=O)[C@H](Cc2ccc(O)cc2)NC(=O)[C@H](CC(=O)O)NC(=O)[C@H](Cc2c[nH]c3ccccc23)NC(=O)[C@H](Cc2ccc(N)nc2)NC(=O)[C@H](Cc2c[nH]c3ccc(Cl)cc23)NC(=O)[C@H](CCC(=O)O)NC1=O	Interleukin-1 receptor-like 2 (IL1RL2, Homo sapiens, UniProt Q9HB29)	reporter gene (SEAP), inhibitor, HEK-Blue IL-36R reporter	HEK-Blue IL-36R cells	0.015 µM, 6 h, added: IL-36γ 0.03 ng/mL	–	remaining activity	82.3%
O=C(O)Cc1cc2c(cc1C(=O)c1cccc(Cl)c1)OCO2	Gria1/Gria2	glutamate-evoked current, whole-cell patch clamp	HEK-293T	concentration not given, glutamate alone after washout, added: glutamate	–	current amplitude after recovery	614 ± 34 pA
